Measured values collected from several papers.
Numbered parts are unrelated; each lists some results of a single study.
Sequence of UniProt Q9Y4K4 (whole entry, looked up): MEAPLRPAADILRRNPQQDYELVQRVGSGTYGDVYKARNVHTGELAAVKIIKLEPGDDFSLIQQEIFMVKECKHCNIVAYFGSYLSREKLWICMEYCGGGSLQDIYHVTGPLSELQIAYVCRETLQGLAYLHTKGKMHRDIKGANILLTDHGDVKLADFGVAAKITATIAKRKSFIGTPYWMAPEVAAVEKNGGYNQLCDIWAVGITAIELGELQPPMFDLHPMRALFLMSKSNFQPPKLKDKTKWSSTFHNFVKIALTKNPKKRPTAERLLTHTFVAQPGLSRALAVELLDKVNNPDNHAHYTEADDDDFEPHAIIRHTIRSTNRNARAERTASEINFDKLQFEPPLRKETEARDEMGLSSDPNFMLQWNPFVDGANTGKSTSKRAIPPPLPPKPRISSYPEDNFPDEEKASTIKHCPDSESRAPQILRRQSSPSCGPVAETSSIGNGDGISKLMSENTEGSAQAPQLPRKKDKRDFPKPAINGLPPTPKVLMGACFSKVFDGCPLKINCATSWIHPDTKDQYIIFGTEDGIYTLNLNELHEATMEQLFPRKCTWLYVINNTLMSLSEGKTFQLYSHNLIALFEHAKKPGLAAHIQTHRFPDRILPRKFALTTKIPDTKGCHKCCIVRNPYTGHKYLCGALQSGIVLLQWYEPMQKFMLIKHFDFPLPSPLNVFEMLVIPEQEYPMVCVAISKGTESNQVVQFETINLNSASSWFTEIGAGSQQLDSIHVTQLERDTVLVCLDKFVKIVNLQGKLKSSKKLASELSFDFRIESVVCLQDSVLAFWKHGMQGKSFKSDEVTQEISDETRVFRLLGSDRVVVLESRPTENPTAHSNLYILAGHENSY
Sequence of UniProt Q96BR1 (whole entry, looked up): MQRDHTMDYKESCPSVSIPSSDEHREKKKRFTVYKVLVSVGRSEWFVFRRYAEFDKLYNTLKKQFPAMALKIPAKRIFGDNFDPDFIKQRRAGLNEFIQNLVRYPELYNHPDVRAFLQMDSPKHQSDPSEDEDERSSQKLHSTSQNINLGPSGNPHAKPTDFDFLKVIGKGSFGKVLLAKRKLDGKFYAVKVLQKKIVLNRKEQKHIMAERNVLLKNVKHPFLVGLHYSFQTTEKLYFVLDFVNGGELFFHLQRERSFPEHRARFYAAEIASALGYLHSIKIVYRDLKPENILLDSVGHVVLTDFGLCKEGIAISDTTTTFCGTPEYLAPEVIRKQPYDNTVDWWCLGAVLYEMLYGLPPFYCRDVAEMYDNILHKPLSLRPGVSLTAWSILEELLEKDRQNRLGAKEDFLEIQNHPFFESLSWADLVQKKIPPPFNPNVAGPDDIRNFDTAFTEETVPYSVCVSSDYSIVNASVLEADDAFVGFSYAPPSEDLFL
Sequence of UniProt Q13546 (whole entry, looked up): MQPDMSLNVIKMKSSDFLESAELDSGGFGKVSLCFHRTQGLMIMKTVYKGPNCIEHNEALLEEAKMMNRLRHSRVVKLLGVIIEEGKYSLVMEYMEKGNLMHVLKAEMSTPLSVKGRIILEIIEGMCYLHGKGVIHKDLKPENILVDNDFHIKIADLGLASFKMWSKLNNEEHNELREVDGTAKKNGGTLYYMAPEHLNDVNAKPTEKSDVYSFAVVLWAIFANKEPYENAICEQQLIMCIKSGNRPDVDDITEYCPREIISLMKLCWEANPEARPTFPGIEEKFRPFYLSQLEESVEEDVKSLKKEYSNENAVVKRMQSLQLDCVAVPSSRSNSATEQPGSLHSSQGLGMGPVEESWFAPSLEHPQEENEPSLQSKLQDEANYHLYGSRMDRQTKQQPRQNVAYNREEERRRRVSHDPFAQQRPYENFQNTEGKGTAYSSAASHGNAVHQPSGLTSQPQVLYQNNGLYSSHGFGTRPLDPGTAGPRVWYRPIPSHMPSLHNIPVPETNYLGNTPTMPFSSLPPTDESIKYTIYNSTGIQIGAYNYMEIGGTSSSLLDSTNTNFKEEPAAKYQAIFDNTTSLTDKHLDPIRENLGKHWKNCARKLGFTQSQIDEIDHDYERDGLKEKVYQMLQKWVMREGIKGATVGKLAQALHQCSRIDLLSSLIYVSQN
Sequence of UniProt Q86Z02 (whole entry, looked up): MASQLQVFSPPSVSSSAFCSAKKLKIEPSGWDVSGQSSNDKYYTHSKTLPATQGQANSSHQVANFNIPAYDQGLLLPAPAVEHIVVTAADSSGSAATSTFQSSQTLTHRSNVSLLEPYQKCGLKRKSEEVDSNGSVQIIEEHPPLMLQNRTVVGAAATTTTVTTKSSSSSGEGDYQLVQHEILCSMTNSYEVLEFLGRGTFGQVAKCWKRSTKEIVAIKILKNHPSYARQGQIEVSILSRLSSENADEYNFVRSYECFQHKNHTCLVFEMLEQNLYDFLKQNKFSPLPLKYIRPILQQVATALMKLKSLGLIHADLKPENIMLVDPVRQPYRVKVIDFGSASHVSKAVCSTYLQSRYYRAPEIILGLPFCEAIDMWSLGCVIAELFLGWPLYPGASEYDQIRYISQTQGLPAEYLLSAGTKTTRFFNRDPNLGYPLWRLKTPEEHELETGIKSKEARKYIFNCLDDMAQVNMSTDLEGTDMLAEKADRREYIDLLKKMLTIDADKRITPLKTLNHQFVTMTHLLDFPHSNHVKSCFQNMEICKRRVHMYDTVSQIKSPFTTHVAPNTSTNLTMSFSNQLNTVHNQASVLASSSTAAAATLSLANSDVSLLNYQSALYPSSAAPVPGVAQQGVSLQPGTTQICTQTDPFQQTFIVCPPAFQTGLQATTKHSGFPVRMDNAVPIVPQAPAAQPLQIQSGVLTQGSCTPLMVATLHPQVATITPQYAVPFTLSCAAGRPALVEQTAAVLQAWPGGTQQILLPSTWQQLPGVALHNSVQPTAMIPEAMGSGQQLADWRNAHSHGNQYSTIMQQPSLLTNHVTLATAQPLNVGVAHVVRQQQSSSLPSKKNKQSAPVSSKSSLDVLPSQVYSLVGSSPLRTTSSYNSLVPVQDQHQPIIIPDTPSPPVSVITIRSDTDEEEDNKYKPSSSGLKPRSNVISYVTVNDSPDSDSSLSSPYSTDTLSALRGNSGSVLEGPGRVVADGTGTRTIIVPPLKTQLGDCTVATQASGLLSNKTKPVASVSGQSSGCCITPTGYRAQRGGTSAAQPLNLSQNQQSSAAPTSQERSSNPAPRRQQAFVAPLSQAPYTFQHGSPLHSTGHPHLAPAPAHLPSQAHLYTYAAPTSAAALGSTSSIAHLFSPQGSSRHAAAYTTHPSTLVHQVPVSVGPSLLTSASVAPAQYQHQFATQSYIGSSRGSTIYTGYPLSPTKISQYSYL
Sequence of UniProt Q9C098 (whole entry, looked up): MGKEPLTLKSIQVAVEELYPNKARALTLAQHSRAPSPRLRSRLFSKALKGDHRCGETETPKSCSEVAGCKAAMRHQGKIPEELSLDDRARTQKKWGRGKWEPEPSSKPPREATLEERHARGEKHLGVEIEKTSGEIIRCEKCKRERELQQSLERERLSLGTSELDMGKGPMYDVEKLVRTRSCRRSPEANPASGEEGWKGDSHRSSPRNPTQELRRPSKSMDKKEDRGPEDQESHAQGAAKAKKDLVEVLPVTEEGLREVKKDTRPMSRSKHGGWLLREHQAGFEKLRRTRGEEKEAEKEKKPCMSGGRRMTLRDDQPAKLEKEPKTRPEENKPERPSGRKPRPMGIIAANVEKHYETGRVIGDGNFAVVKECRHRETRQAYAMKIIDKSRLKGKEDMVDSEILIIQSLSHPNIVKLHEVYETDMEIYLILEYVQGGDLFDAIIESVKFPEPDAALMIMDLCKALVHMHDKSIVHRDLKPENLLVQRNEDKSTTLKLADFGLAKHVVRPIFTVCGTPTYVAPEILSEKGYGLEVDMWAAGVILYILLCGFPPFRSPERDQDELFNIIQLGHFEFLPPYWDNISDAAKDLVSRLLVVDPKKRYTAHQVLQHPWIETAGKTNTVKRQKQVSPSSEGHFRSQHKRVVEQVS

Study 1 — method: protein-binding microarray; form: double-stranded DNA, one strand shown; sample: in vitro; tested at: 0.8 µM; setting: whole 60-bp probe, no competitor; direction: higher = stronger binding; constant ends, left off below: … GTCTTGATTCGCTTGACGCTGCTG
Target: Centromere-binding protein 1, full length, N-terminal tag (CBF1, Saccharomyces cerevisiae, UniProt P17106, residues 1-351)
Sequence of UniProt P17106 (whole entry, looked up): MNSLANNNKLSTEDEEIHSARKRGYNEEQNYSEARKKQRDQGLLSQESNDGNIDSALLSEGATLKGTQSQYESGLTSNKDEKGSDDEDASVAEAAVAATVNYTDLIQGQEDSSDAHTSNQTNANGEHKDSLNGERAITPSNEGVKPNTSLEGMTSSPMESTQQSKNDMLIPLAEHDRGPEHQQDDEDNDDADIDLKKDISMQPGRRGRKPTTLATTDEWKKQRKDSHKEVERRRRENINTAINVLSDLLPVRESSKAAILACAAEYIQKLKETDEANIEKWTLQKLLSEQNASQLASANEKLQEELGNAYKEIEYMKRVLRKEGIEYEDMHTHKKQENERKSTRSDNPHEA
Strand	fluorescence intensity [a.u.]
GAAAAAATAAAATAAATCGTGCGCCCATTATAATAG	512
GAAATACAATAATGGAAGGTGATGAAGCCGAAGTAG	591
CTACGATGGAAGTGACACCAAAAATTATTTTGTTTC	528
CCTAACTACTATAATACCACCAGATAGCTTCGTACA	519
GAAGCACTATAGCCGCACGTAAAAATAACTTAATAG	512
TGTACGAAGCTATACGTGGCAACTATAGTAGTTAGG	510
CCTAACTACTATATCAGCATGACATAGCTTCGTACA	568
CTATGAACACCCATTCATCACGTGTAATTGGACTTC	6430

Study 2 — observed: enzyme activity; action: inhibitor; tested at: 0.5 µM; baseline: control
Target: Serine/threonine-protein kinase PAK 2 (PAK2, Homo sapiens, UniProt Q13177)
Sequence of UniProt Q13177 (whole entry, looked up): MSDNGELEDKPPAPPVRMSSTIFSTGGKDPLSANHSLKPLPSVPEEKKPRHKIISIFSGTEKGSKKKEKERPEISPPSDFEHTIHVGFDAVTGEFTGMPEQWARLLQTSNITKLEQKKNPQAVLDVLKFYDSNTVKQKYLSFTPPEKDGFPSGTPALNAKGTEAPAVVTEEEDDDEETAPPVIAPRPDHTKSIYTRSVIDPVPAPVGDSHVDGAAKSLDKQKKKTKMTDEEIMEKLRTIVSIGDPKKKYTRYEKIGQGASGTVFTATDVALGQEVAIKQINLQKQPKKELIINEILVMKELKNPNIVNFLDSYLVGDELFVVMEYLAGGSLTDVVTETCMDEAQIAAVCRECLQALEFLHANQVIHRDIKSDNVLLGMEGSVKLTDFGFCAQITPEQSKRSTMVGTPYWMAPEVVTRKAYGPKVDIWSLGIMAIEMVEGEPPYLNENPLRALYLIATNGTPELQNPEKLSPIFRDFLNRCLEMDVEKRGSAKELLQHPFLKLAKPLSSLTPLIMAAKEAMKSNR
SMILES	remaining activity [%]
COc1ccc(C(=O)Nc2sc3c(c2C(N)=O)CCCC3)cc1OC	99.1
Cc1ccc(NC(=O)c2ccc(CN3CCN(C)CC3)cc2)cc1Nc1nc(-c2cccnc2)cs1	111
O=C(O)c1ccc2c3c1cccc3c(=O)n1c3ccccc3nc21	97
Cc1nc(-c2ccccc2)c(-c2ccncc2)o1	82.3
Nc1ccc2ncnc(NCCc3ccc(Oc4ccccc4)cc3)c2c1	102
O=C1NC(=O)C(c2cn(CCCn3ccnc3)c3ccccc23)=C1Nc1ccccc1	88.5
N#CC(C#N)=C(N)/C(C#N)=C/c1ccc(O)cc1	86
NCCNc1ncc(C(N)=O)c(Nc2cccc(C(F)(F)F)c2)n1	58.9
COc1ccc(OC)c2c(=S)c3ccccc3[nH]c12	104
Cc1cccc(-c2[nH]c(C(C)(C)C)nc2-c2ccc3c(c2)OCO3)n1	72.4
OCC(O)CCON=C1C(c2c(O)[nH]c3ccccc23)=Nc2ccccc21 (stereo not drawn)	82.1
O=c1c2ccccc2[nH]c(=S)n1CCN1CCC(=C(c2ccc(F)cc2)c2ccc(F)cc2)CC1	103
CN(C)c1ccc(C=C2C(=O)Nc3ccccc32)cc1	102
O=C1NC(=O)C(c2cn(CCCO)c3ncccc23)=C1c1cnccn1	105

Study 3 — method: universal PBM; form: double-stranded DNA, one strand shown; sample: in vitro; tested at: not given; direction: higher = stronger binding
Target: Sal-like protein 4, full length isoform B (SALL4, Homo sapiens, UniProt Q9UJQ4-2, residues 1-616)
Setting: 8-mer, flanks averaged, mean of replicates
Target sequence (chain): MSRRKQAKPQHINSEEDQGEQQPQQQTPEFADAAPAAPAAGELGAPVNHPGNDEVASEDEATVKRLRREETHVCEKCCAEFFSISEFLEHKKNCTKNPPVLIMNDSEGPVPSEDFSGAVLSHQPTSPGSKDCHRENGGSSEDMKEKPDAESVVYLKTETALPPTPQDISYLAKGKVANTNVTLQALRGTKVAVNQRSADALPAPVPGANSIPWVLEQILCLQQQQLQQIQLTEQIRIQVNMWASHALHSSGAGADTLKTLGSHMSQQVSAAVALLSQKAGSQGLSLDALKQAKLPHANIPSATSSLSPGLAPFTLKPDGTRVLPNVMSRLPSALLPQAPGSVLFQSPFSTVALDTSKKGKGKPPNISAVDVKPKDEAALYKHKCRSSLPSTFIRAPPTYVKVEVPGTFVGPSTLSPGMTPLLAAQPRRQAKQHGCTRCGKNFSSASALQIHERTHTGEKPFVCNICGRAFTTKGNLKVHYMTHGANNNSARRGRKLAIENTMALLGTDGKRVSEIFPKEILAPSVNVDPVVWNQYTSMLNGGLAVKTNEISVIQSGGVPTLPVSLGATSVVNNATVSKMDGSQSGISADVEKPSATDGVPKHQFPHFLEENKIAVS
Strand	E-score
AGCCTGCA	-0.186
GCACAACC	-0.279
CTAGACTC	-0.0961
AGTGCCTC	-0.217
AGCTAGGG	-0.134
ATGGCAAG	0.0362
ACTAGAGA	0.0835
ACTTGTGG	-0.0214

Study 4 — observed: cell-free assay; method: competition with immobilised ligand; tested at: 1 µM
SMILES: O=C(Nc1cccnn1)N1CCC(=Cc2cccc(Oc3ccc(C(F)(F)F)cn3)c2)CC1
target	remaining binding [%]
Serine/threonine-protein kinase Nek11 (NEK11, Homo sapiens, UniProt Q8NG66)	100
Receptor-interacting serine/threonine-protein kinase 1 (RIPK1, Homo sapiens, UniProt Q13546)	97
Homeodomain-interacting protein kinase 1 (HIPK1, Homo sapiens, UniProt Q86Z02)	100
Serine/threonine-protein kinase DCLK3 (DCLK3, Homo sapiens, UniProt Q9C098)	85
Phosphatidylinositol 4,5-bisphosphate 3-kinase catalytic subunit delta isoform (PIK3CD, Homo sapiens, UniProt O00329)	81
Calcium/calmodulin-dependent protein kinase type II subunit alpha (CAMK2A, Homo sapiens, UniProt Q9UQM7)	72
Ephrin type-B receptor 1 (EPHB1, Homo sapiens, UniProt P54762)	100
RAF proto-oncogene serine/threonine-protein kinase (RAF1, Homo sapiens, UniProt P04049)	63
Mast/stem cell growth factor receptor Kit (KIT, Homo sapiens, UniProt P10721, V559D/V654A)	100
Tyrosine-protein kinase ABL1, non-phosphorylated (ABL1, Homo sapiens, UniProt P00519)	68
Mitogen-activated protein kinase kinase kinase kinase 5 (MAP4K5, Homo sapiens, UniProt Q9Y4K4)	100
Serine/threonine-protein kinase Sgk3 (SGK3, Homo sapiens, UniProt Q96BR1)	93
Tyrosine-protein kinase ABL1, non-phosphorylated (ABL1, Homo sapiens, UniProt P00519, H396P)	86
Ribosomal protein S6 kinase alpha-3, N-terminal kinase domain (RPS6KA3, Homo sapiens, UniProt P51812)	100
Homeodomain-interacting protein kinase 2 (HIPK2, Homo sapiens, UniProt Q9H2X6)	100

Excerpt of the above (study 3):
Strand	E-score
ACTAGAGA	0.0835
AGCTAGGG	-0.134
GCACAACC	-0.279
